Measurements gathered from unrelated publications.
Each numbered part is a random draw from the data of one study; scales do not carry over between parts. Several values in a cell are separate wells, animals, samples, runs or records.
Sequence of UniProt Q56UN5 (whole entry, looked up): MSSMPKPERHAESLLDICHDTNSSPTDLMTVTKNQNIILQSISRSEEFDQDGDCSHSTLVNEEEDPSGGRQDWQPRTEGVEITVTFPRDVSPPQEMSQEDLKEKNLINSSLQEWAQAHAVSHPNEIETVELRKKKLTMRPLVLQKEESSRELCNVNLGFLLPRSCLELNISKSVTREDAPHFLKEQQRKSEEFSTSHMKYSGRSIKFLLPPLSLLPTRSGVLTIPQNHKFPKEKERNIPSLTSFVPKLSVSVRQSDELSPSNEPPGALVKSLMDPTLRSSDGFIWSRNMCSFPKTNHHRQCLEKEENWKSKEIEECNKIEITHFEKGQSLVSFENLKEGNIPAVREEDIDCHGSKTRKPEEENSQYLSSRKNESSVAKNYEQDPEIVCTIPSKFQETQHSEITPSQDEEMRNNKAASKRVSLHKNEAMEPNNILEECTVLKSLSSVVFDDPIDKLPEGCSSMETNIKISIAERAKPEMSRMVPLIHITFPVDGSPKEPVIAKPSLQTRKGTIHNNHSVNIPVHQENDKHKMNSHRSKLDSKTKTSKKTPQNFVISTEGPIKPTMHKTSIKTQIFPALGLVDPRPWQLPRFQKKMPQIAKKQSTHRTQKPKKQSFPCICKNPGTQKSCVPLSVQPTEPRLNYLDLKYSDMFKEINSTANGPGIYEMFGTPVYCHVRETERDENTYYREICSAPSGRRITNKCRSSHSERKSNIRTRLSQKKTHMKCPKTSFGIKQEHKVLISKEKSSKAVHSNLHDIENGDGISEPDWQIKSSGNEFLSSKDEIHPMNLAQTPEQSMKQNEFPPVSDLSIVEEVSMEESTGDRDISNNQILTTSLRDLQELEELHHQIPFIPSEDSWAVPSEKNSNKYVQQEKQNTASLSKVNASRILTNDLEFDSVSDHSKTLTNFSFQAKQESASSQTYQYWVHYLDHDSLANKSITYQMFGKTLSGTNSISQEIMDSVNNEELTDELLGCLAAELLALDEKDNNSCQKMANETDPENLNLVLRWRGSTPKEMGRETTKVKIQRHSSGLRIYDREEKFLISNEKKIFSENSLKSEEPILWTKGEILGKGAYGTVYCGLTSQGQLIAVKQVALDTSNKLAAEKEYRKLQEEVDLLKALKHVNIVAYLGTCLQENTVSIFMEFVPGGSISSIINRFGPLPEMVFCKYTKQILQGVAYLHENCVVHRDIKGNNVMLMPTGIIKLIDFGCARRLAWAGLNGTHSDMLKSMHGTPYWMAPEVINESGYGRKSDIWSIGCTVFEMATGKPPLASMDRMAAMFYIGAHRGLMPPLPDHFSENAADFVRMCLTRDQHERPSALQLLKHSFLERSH
Sequence of UniProt Q9NRP7 (whole entry, looked up): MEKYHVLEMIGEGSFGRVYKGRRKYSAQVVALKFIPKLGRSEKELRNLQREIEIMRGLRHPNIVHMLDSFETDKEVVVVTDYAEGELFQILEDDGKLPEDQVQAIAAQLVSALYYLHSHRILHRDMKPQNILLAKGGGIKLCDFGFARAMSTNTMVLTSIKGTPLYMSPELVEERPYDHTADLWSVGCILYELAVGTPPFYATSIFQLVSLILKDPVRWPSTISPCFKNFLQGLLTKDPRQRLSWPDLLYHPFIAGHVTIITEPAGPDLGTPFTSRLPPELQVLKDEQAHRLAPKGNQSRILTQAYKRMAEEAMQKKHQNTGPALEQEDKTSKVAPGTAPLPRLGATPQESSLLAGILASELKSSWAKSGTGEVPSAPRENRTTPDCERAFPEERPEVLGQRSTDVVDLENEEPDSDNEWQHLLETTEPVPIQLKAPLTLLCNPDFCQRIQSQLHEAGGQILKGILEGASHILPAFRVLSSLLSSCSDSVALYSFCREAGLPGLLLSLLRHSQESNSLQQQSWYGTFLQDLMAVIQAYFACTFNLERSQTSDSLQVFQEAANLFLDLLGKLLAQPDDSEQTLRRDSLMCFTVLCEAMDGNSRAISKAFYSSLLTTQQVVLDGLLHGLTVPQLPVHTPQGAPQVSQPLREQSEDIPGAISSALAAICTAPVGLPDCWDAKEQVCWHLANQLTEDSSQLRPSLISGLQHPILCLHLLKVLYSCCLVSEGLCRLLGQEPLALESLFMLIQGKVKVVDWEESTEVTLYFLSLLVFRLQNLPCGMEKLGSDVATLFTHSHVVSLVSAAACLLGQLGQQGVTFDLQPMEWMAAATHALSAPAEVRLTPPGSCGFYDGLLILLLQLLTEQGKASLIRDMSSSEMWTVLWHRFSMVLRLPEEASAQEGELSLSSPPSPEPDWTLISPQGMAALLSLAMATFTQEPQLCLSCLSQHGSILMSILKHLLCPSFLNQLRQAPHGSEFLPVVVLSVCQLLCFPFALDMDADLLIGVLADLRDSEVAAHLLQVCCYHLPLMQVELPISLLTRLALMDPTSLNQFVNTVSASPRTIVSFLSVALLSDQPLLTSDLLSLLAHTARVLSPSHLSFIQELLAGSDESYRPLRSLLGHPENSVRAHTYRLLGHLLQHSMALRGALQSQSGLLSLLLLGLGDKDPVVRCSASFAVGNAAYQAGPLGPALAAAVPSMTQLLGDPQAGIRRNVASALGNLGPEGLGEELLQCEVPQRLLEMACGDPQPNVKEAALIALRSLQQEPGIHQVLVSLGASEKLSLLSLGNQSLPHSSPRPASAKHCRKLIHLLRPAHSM
Sequence of UniProt P06493 (whole entry, looked up): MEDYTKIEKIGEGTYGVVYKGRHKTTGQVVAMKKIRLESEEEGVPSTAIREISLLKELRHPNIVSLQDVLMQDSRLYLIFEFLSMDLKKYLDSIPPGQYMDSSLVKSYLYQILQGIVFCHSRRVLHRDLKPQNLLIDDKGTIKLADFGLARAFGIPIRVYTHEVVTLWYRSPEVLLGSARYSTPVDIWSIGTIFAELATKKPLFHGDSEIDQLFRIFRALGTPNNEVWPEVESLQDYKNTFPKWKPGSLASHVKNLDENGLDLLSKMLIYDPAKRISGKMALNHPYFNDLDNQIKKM
Sequence of UniProt Q9UK32 (whole entry, looked up): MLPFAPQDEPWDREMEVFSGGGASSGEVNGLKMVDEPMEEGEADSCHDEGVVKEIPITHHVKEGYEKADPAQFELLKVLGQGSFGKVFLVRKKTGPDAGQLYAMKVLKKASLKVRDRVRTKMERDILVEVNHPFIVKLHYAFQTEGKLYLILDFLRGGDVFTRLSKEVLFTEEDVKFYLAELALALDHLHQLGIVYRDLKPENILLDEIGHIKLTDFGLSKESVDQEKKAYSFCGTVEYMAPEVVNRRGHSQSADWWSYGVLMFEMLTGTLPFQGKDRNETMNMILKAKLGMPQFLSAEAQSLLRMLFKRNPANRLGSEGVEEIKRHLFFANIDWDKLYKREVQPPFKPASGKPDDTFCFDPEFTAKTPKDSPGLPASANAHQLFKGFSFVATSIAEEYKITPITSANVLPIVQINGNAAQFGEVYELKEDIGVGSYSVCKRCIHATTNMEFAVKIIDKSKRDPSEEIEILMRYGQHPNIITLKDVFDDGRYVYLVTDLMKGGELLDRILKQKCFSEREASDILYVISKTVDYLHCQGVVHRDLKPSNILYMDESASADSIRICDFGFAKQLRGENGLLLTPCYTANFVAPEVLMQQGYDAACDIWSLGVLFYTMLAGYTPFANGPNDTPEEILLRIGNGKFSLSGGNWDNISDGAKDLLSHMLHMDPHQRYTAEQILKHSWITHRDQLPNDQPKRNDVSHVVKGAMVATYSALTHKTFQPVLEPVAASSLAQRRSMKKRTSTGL
Sequence of UniProt P54764 (whole entry, looked up): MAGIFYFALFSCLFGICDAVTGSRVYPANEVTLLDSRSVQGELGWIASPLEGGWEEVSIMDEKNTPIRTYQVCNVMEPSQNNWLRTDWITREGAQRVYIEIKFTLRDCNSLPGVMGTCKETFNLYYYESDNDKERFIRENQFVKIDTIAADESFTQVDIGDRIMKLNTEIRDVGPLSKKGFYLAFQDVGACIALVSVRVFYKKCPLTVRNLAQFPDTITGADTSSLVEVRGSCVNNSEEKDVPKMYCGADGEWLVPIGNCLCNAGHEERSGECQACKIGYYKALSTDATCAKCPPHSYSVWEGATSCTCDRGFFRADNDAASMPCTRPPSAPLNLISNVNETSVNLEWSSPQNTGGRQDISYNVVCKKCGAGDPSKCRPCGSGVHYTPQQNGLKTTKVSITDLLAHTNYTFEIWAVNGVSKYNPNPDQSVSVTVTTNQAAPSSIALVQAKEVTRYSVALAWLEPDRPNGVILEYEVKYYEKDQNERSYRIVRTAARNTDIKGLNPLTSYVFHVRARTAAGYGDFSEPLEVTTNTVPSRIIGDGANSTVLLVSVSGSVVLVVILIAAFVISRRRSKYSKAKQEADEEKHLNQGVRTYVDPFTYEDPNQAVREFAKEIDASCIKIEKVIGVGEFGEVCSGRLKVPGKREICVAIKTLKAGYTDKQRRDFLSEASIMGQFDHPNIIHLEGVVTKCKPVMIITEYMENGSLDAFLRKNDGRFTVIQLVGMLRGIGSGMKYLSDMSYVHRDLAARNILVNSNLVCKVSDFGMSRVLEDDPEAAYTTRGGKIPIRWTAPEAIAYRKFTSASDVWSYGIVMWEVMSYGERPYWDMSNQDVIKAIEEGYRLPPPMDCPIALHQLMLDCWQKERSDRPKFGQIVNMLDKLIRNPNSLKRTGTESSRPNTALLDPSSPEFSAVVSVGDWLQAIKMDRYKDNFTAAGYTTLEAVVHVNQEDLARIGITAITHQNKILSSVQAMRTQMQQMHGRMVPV
Sequence of UniProt Q16816 (whole entry, looked up): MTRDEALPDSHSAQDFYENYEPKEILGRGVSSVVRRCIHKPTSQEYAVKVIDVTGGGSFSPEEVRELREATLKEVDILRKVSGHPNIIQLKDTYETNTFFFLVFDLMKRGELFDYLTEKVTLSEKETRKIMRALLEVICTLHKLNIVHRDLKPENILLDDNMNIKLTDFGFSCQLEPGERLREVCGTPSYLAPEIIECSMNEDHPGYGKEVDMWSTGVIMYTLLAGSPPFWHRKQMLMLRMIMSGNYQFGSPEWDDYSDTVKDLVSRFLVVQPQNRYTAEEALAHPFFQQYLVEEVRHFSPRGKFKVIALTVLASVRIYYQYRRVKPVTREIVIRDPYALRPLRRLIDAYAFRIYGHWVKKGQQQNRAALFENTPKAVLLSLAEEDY

Study 1
Species: human
Sample: microsomes or S9
Tested at: 2 µM
Time: 0.5 h
Endpoint: remaining compound
SMILES = Cc1n[nH]c(CC(=O)N2C[C@@H](C)[C@](O)(C(C)C)C2)n1; result = 94.7%
SMILES = Cc1ccc(S(=O)(=O)NNc2ccc(S(=O)(=O)N(C(C)C)C(C)C)cn2)c(Cl)c1; result = 0%
SMILES = OC(CN1CCCCCC1)CN(c1ccccc1)c1ccccc1 (stereo not drawn); result = 8.15%
SMILES = COc1nccc(CNc2nn(C)cc2Cl)c1F; result = > 100%
SMILES = COc1ccc(-c2coc3c(O)c(OC)ccc3c2=O)cc1; result = 81.5%
SMILES = CCc1c(C(=O)NCC(OC)C(C)(C)C)cnc2c1c(=O)n(C)c(=O)n2C (stereo not drawn); result = 4.43%
SMILES = COc1cccc(CCN[C@H]2CS(=O)(=O)C[C@@H]2S(=O)(=O)c2ccc(Cl)cc2)c1; result = 0.297%
SMILES = COC(=O)c1cc(Br)c(=O)n(-c2nccs2)c1; result = 0.298%

Study 2
Compound: CSc1cccnc1N1CCN(Cc2nc3ccccc3[nH]2)CC1
Effect on: cell-free assay
Technique: competition with immobilised ligand
Tested at: 1 µM
Endpoint: remaining binding
target = Serine/threonine-protein kinase WNK3 (WNK3, Homo sapiens, UniProt Q9BYP7); result = 100%
target = Ribosomal protein S6 kinase alpha-6, C-terminal kinase domain (RPS6KA6, Homo sapiens, UniProt Q9UK32); result = 94%
target = Receptor-type tyrosine-protein kinase FLT3 (FLT3, Homo sapiens, UniProt P36888, D835H); result = 65%
target = Wee1-like protein kinase (WEE1, Homo sapiens, UniProt P30291); result = 100%
target = Serine/threonine-protein kinase PLK1 (PLK1, Homo sapiens, UniProt P53350); result = 78%
target = Serine/threonine-protein kinase 36 (STK36, Homo sapiens, UniProt Q9NRP7); result = 97%
target = LIM domain kinase 2 (LIMK2, Homo sapiens, UniProt P53671); result = 100%
target = Serine/threonine-protein kinase/endoribonuclease IRE1 (ERN1, Homo sapiens, UniProt O75460); result = 70%
target = Mitogen-activated protein kinase kinase kinase 19 (MAP3K19, Homo sapiens, UniProt Q56UN5); result = 72%
target = Phosphatidylinositol 4,5-bisphosphate 3-kinase catalytic subunit alpha isoform (PIK3CA, Homo sapiens, UniProt P42336, Q546K); result = 84%
target = Tyrosine-protein kinase HCK (HCK, Homo sapiens, UniProt P08631); result = 82%
target = Epidermal growth factor receptor (EGFR, Homo sapiens, UniProt P00533, del747-750/T751S); result = 82%
target = Receptor-type tyrosine-protein kinase FLT3 (FLT3, Homo sapiens, UniProt P36888, D835V/ITD); result = 73%

Study 3
Structure (SMILES): O=c1cc(N2CCOCC2)oc2c(-c3ccccc3)cccc12
Effect on: enzyme activity
Action: inhibitor
Tested at: 0.5 µM
Baseline: control
Endpoint: remaining activity
target = Dual specificity tyrosine-phosphorylation-regulated kinase 3 (DYRK3, Homo sapiens, UniProt O43781); result = 100%
target = Tyrosine-protein kinase Blk (BLK, Homo sapiens, UniProt P51451); result = 120%
target = Homeodomain-interacting protein kinase 2 (HIPK2, Homo sapiens, UniProt Q9H2X6); result = 122%
target = Cyclin-dependent kinase 1, with cyclin B (CDK1, Homo sapiens, UniProt P06493); result = 115%
target = Phosphorylase b kinase gamma catalytic chain, skeletal muscle/heart isoform (PHKG1, Homo sapiens, UniProt Q16816); result = 90.1%
target = Ephrin type-A receptor 4 (EPHA4, Homo sapiens, UniProt P54764); result = 99.2%
target = Homeodomain-interacting protein kinase 4 (HIPK4, Homo sapiens, UniProt Q8NE63); result = 102%

Single results of other studies
Cell line: Gaucher fibroblasts L444P/L444P
Technique: 4-MUG hydrolysis, cell lysate
Baseline: DMSO
Compound = c1ccc2c(-c3nn4c(-c5ccncc5)nnc4s3)c[nH]c2c1; tested at = 1 µM; GCase activity = 167% and 195%
Compound = Ic1ccc(Nc2nc(NCCN3CCOCC3)nc(N3CCOCC3)n2)cc1; tested at = 5 µM; GCase activity = 165% and 209% and 172%
